Assay results of several laboratories.
A part holds a random share of what one study measured. Positions count from the first letter of the parent shown.

Series 1
Target: ABI1, truncated, D143A, DHFR fusion (Arabidopsis thaliana)
Method: DHFR PCA, deep sequencing
Medium: yeast
Notes: methotrexate growth selection, single substitutions
With: (+)-ABA 17 µM
Baseline: wild-type fitted maximum
Reading: higher = stronger binding
Parent: PYL1, truncated, DHFR fusion (Arabidopsis thaliana); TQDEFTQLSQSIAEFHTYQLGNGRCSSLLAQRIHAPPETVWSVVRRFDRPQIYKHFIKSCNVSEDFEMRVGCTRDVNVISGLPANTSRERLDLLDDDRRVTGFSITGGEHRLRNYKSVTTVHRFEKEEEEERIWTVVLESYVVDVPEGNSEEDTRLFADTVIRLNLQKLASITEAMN
Change	relative binding score [%]
R49Y	48.3
F5E	71.5
D65L	54.4
S27N	87.1
V143L	26.7
I57E	2.04
N114W	-18.5
A158S	51.9
H110A	0.127
L112E	7.04
V121L	65.6
T1D	81.3
E151C	80.4
D75V	95

Series 2
Target: CCNE2, cyclin fold, Cln2 fusion (human)
Method: yeast growth competition, sequencing
Medium: yeast
Notes: strong parent motif
Baseline: not given
Reading: higher = stronger binding
Parent: CDKN1A docking peptide (human); SKACRRLFGPVDS; partner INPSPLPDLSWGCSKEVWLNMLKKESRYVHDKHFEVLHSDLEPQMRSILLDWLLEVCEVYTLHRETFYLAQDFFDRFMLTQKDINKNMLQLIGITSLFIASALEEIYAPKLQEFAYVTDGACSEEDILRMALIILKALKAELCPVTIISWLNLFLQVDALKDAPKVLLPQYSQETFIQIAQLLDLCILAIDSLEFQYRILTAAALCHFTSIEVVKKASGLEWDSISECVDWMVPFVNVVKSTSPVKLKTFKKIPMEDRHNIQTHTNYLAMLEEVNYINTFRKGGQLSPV
Change	normalised enrichment score
V11E	5.16
C4A	1.15
G9K	2.59
G9M	4.26
R6Y	1.08
V11M	3.77
C4W	1.4
R5E	-0.107
F8S	0.254
L7V	0.857
A3T	2.31
A3W	1
R6A	1.17
A3S	0.384
V11D	5.45

Series 3
Target: Ras GTPase-activating protein-binding protein 1, full length (G3BP1, Homo sapiens, UniProt Q13283)
UniProt Q13283, sequence (whole entry, looked up): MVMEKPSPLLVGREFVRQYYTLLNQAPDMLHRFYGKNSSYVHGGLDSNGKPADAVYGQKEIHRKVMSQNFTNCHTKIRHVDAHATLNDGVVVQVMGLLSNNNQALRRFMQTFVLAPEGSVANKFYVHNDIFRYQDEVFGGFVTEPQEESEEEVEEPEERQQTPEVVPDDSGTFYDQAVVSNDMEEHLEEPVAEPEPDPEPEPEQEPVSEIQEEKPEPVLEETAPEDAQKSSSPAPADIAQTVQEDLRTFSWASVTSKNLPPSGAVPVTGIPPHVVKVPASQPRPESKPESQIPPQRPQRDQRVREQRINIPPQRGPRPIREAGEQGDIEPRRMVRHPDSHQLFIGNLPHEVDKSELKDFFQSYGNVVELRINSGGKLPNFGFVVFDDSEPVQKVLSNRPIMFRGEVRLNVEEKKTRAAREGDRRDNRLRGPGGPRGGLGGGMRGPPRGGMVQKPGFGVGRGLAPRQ
Method: RNA Bind-n-Seq
Molecule type: RNA
Medium: in vitro
Tested at: 200 nM
Notes: whole 134-nt RNA, ends assumed
With: 150 mM LiCl
Baseline: input library
Reading: higher = stronger binding
Library: 7-deaza-guanosine replaces G
Shared flanks, not repeated: GGGAGUUCUACAGUCCGACGAUC … UGGAAUUCUCGGGUGUCAAGG
Oligonucleotide	log2 enrichment
UUAGGUGGCUCCAGGAUGUAUUUAACGUGCCCUUGGUCAUCCAGAUGACGGAUGACGAGAAGUAUCUGUGGAAGGACCUGACCCUGGACC	-0.718
UCCACCCCUUCUUCCUCCCUUUAACUUAUCCAUUCACUUAAAACAUUACCUGGUCAUCUGGUAAGCCCGGGACAGUAAGCCGAGUGGCUG	-0.116
UGGCCUUGGUGGCAUGCGGGGAGGAAGAGGUGGCCUCAUGGAUCGUGGUGGUCCCGGUGGAAUGUUCAGAGGUGGCCGUGGUGGAGACAG	0.562
CUCAAGUCCUGUGCUACACAUCGUAUGUACCGAAUCGGGAAGGAAGGGAAGGGAAAGUAUUAUGUUACGCCGUUCGGAUCUGCACUUCCA	-0.176
UGGCCCUGGUGGCAUGCGGGGAGGAAGAGGUGGCCUCAUGGAUCGUGGUGGUCCCGGUGGAAUGUUCAGAGGUGGCCGUGGUGGAGCCAG	0.111
UCAGCAACCACCUCAACUCAUUGACUCCGCCAACAUCCGUCAGGAGGAUGCCUUUGAUAACAACAGUGACAUUGCUGAAGAUGGUGGCCA	-0.124
AAGUCCUGUGCUACACAUCGUAUGUACCGAAUCGGUUUUUGGGUUUUUGGUUUUUGGAAAGUAUUAUGUUACGCCGUUCGGAUCUGCACU	-0.46
CUGUGCUACACAUCGUAUGUACCGAAUCGGGAAAAAAAGGGAAAAAAAGGGAAAAAAAGGGAAAGUAUUAUGUUACGCCGUUCGGAUCUG	0.102
UUCCGCCUCUUUCCGGAGUACAAGAACAACAAACUUUUCCUGACCGGGGAGAGCUAUGCUGGCAUCUACAUCCCCACCCUGGCCGUGCUG	1.21
CAAGUCCUGUGCUACACAUCGUAUGUACCGAAUCGGGGUGGGGAAAGGGGAGGGGAAAGUAUUAUGUUACGCCGUUCGGAUCUGCACUUC	-0.508
UCAAGUCCUGUGCUACACAUCGUAUGUACCGAAUCGGAAAAAAAGGAAAGGUGGAAAGUAUUAUGUUACGCCGUUCGGAUCUGCACUUCC	-1.12

Series 4
Target: JUNB, bZIP domain (human)
Method: DHFR protein complementation
Medium: yeast
Notes: single substitutions, most at no-binding floor
Baseline: wild-type JUN-FOS pair
Reading: higher = stronger binding
Parent: JUN, bZIP domain (human); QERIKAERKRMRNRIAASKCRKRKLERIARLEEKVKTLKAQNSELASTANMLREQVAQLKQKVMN; partner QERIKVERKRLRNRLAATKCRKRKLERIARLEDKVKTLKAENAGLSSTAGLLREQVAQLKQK
Change	binding fitness [natural log]
A29R	-1.01
E54T	-1.32
A57G	-1.33
M51D	-0.906
E44K	-1.2
E32P	-1.51
A46Q	-0.959
A40N	-1.28
A40E	-1.13
A40T	-1.18
L45Q	-1.5
K39A	-1.32
R30D	-1.02
T37V	-1.03
E32D	-1.44
Q41A	-1.22
M51H	-1.34
N42A	-1.44
A57Y	-1.32
L38P	-1.51
Q55V	-1.48
N42T	-1.5
E33V	-1.33
K36D	-1.35

Series 5
Target: Prothrombin, mature alpha-thrombin (F2, Homo sapiens, UniProt P00734)
Method: aptamer microarray, sandwich
Molecule type: DNA with 2'F-ANA
Medium: in vitro
Tested at: 200 nM
Notes: whole 15-mer aptamer, many near background
With: Cy3 exosite-II aptamer, 400 nM
Reading: higher = stronger binding
Oligonucleotide: GGTTGGTGTGGTTGG
Modification	mean fluorescence intensity
2'F-ANA at 1 2 4 6 12	286 a.u.
2'F-ANA at 1 2 3 4 5 7 10 13 14	49.8 a.u.
2'F-ANA at 2 3 5 6 10 11 12	74.6 a.u.
2'F-ANA at 2 4 5 6 9 10 13 14 15	65.5 a.u.
2'F-ANA at 1 2 3 5 8 11	56 a.u.
2'F-ANA at 2 3 4 6 8 9 10 13 14	156 a.u.
2'F-ANA at 1 4 8 9 10 13 14 15	46.5 a.u.
2'F-ANA at 2 5 10 15	66.6 a.u.
2'F-ANA at 2 4 5 6 7 8 9 15	82.2 a.u.
2'F-ANA at 1 3 9 12 14	97.9 a.u.
2'F-ANA at 2 3 5 6 7 11 12 14 15	81.5 a.u.
2'F-ANA at 2 5 6 7 12 14	47 a.u.
2'F-ANA at 1 7 8 9 10 11 12 15	74 a.u.
2'F-ANA at 5 6 10 12 15	49.3 a.u.
2'F-ANA at 5 8 10 12 13 14 15	135 a.u.
2'F-ANA at 2 3 4 7 8 9 11 14	303 a.u.
2'F-ANA at 1 2 7 8 11 13 15	127 a.u.
2'F-ANA at 1 2 3 6 7 8 9 10 11 15	67.3 a.u.
2'F-ANA at 4 5 6 7 9 11 14	45.8 a.u.
2'F-ANA at 3 4 6 7 9 10 11 14	171 a.u.
2'F-ANA at 4 6 7 8 9 10 11 15	74.7 a.u.
2'F-ANA at 2 3 5 8 10 11 13 15	54.3 a.u.
2'F-ANA at 2 3 4 7 8 9 11 15	541 a.u.
2'F-ANA at 4 6 7 8 9 14	175 a.u.
2'F-ANA at 1 2 4 5 9 10 11 14 15	48.4 a.u.

Some of these lines once more (series 5):
Modification	mean fluorescence intensity
2'F-ANA at 2 5 6 7 12 14	47 a.u.
2'F-ANA at 1 7 8 9 10 11 12 15	74 a.u.
2'F-ANA at 5 6 10 12 15	49.3 a.u.
2'F-ANA at 5 8 10 12 13 14 15	135 a.u.
2'F-ANA at 2 3 4 7 8 9 11 14	303 a.u.
2'F-ANA at 1 2 7 8 11 13 15	127 a.u.
2'F-ANA at 1 2 3 6 7 8 9 10 11 15	67.3 a.u.
2'F-ANA at 4 5 6 7 9 11 14	45.8 a.u.
2'F-ANA at 3 4 6 7 9 10 11 14	171 a.u.
2'F-ANA at 4 6 7 8 9 10 11 15	74.7 a.u.
2'F-ANA at 2 3 5 8 10 11 13 15	54.3 a.u.
2'F-ANA at 2 3 4 7 8 9 11 15	541 a.u.
2'F-ANA at 4 6 7 8 9 14	175 a.u.
2'F-ANA at 1 2 4 5 9 10 11 14 15	48.4 a.u.
